Measurements collected from several papers.
Protocols differ between the studies behind these lines.
CDK19: Cyclin-dependent kinase 19 (CDK19, Homo sapiens, UniProt Q9BWU1)
UniProt Q9BWU1, sequence (whole entry, unmodified, looked up): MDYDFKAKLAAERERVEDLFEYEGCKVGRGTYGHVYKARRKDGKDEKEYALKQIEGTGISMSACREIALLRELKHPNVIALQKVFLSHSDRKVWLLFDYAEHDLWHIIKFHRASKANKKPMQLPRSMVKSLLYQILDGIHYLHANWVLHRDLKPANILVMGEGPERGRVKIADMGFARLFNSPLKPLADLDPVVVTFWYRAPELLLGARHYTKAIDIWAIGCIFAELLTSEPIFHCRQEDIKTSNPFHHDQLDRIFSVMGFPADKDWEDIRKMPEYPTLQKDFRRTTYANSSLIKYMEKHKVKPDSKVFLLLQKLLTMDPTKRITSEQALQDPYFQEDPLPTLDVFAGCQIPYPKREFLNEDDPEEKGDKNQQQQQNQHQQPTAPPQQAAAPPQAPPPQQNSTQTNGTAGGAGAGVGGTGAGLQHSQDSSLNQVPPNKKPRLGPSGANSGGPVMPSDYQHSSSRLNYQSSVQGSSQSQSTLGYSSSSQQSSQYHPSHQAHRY
CDK19 with cyclin C: Cyclin-dependent kinase 19, with cyclin C (CDK19, Homo sapiens, UniProt Q9BWU1)

SMILES	target	test	setting	how to read	endpoint	result
Cc1ccc(-c2c(/C=C(\C#N)C(=O)NC(C)C)n(CCCO)c3ncnc(N)c23)cc1	CDK19	cell-free assay, competition with immobilised ligand	1 µM		remaining binding	100%
COc1cc(Nc2nc(C)cc(-c3cnn4nc(OC)ccc34)n2)cc(C(F)(F)F)c1	CDK19	inhibitor	1 µM, CDK11	reference: control	remaining activity	91%
CCn1cc(C(=O)O)c(=O)c2c(N)c(F)c(NC3CCCCC3)cc21	CDK19 with cyclin C	kinase activity	0.1 µM, together with: ATP at Km		inhibition	33.7%
CCN1CCN(Cc2ccc(NC(=O)c3ccc(C)c(NC(=O)c4cncc(-c5cccs5)c4)c3)cc2C(F)(F)F)CC1	CDK19	KinomeScan	1 µM		remaining binding	1.2%
CC(C)=CC1OC(C)(C)C2C=C3C(=O)C(Cl)=CC(O)C3C3C(O)C4OC4C(=O)C132 (stereo not shown)	CDK19	binder, KINOMEscan competition binding	10 µM	reference: DMSO control	remaining binding	95%
Cc1cnc2nc1Nc1cccc(c1)COC/C=C/COCc1cc(ccc1OCCN1CCOCC1)N2	CDK19		0.1 µM	reference: DMSO control	remaining binding	100%
CN1CCN(Cc2ccc(NC(=O)c3cccc(C#Cc4cnc(N)c5ncccc45)c3)cc2C(F)(F)F)CC1	CDK19	enzyme activity	0.05 µM		remaining activity	26%
C=CC(=O)N1CCCC(n2c(=O)c3ncccc3n(Cc3ccc(Oc4ccccc4)cc3)c2=O)C1 (stereo not shown)	CDK19	cell-free assay, competition with immobilised ligand	1 µM		remaining binding	77%
CN1C[C@@H](c2c[nH]c3cc(Br)ccc23)NC[C@@H]1c1c[nH]c2cc(Br)ccc12	CDK19 with cyclin C	enzyme activity, inhibitor	10 µM		remaining activity	102%
C=CC(=O)N1CCc2ccc(-n3c(=O)ccc4cnc5ccc(-c6cnn(C)c6)cc5c43)cc21	CDK19	KINOMEscan	1 µM	reference: DMSO control	remaining binding	83%
CC(=O)N1c2ccc(-c3ccc(CNC(=O)c4cn5cc(-c6cnc(N)nc6)nc(N6CCOCC6)c5n4)cc3)cc2CC[C@@H]1C	CDK19	KINOMEscan	10 µM		remaining binding	63%
CNC1C[S+]2CC[S+]3CC[S+](C1)[Ru-4]321([N]=C=S)[n]2c3ccc(OC)cc3c3c4c(c5cc(F)c[n+]1c5c32)C(=O)NC4=O (stereo not shown)	CDK19	KinomeScan	0.1 µM	reference: untreated	remaining binding	74%
CCN1CCN(Cc2ccc(C(=O)Nc3ccc(C)c(NCc4cnc5[nH]ccc5c4OC)c3)cc2C(F)(F)F)CC1	CDK19	KINOMEscan	1 µM		remaining binding	32%

For quick reference, copied from above:
SMILES	target	test	setting	how to read	endpoint	result
CC(C)=CC1OC(C)(C)C2C=C3C(=O)C(Cl)=CC(O)C3C3C(O)C4OC4C(=O)C132 (stereo not shown)	CDK19	binder, KINOMEscan competition binding	10 µM	reference: DMSO control	remaining binding	95%
C=CC(=O)N1CCCC(n2c(=O)c3ncccc3n(Cc3ccc(Oc4ccccc4)cc3)c2=O)C1 (stereo not shown)	CDK19	cell-free assay, competition with immobilised ligand	1 µM		remaining binding	77%
